Results collected from several papers.
Compare with care: the assays were run in different laboratories. Several values in a cell are separate wells, animals, samples, runs or records. ± gives the spread as reported.

The ΔTm of `O=C(N/N=C/c1cc[n+](CC2CC2)c2ccccc12)c1cccc(C(=O)N/N=C/c2cc[n+](CC3CC3)c3ccccc23)c1` is reported as 0.7 °C (hp2 hairpin duplex DNA; FRET melting; 1 µM).
The remaining binding of `Nc1ncc(-c2cc(-c3cnn(CC(F)(F)F)c3)ncc2F)nc1C(=O)NC1CNCC(F)C1` (stereo not shown) is reported as 82% (PLK2; KINOMEscan; 1 µM; baseline: DMSO control).
`O=C(NN1C(=O)c2ccccc2NC1c1ccc([N+](=O)[O-])o1)c1ccc([N+](=O)[O-])cc1` (stereo not shown) gave an Emax of 119% (Mus musculus; gene silencing, high-content imaging; LDR reporter GFP cells; 30 h, retest, mean of two runs).
Under “log2 fold change”, `COC1CN([C@H]2CC[C@H]([C@@]3(C)Oc4c(Cl)cc(C(=O)NCc5c(SC)cc(C)[nH]c5=O)c(C)c4O3)CC2)C1` is recorded as 0.562 (RNA-seq, refers to: SLC18A2 mouse homolog; mouse, HT-1376 xenograft, whole blood; dose not given; baseline: vehicle).
With `COc1cccc(/C=N/Nc2nc(Nc3ccccc3)nc(-n3nc(C)cc3C)n2)c1O` the AC50 was 6.31 µM (Mus musculus; gene silencing, high-content imaging; LDR reporter GFP cells; retest run 2).
`COC1OC(C)C(OS(=O)(=O)O)C(OC2OC(C)C(OS(=O)(=O)O)C(OS(=O)(=O)O)C2O)C1O` (stereo not shown): “prothrombin time prolongation” 0.95 fold (human plasma; 128 µg/mL; baseline: control).
With `O=C(N/N=C/c1ccc2c(ccc[n+]2Cc2ccccc2)c1)N/N=C/c1ccc2c(ccc[n+]2Cc2ccccc2)c1` the ΔTm was 6.8 ± 0.5 °C (MYC parallel G4 DNA; FRET melting; 1 µM, DNA 0.2 µM, with: duplex DNA competitor 10 µM).
For `COC1OC(C)C(OS(=O)(=O)O)C(OC2OC(C)C(OS(=O)(=O)O)C(OC3OC(C)C(OS(=O)(=O)O)C(OC4OC(C)C(OS(=O)(=O)O)C(OS(=O)(=O)O)C4O)C3O)C2O)C1O` (stereo not shown), the prothrombin time was 15.1 ± 0.2 s (human plasma; 128 µg/mL).
`COc1ccc(NC(=O)CSc2nc3c(oc4ccccc43)c(=O)n2Cc2ccco2)cc1Cl` has an Emax of 51% (Mus musculus; gene silencing, high-content imaging; LDR reporter GFP cells; 30 h, retest run 1).
For `O=C(N/N=C/c1ccc(C[n+]2ccccc2)cc1)c1cccc(C(=O)N/N=C/c2ccc(C[n+]3ccccc3)cc2)n1`, the ΔTm was 4.5 ± 0.3 °C (MYC parallel G4 DNA; FRET melting; 1 µM, DNA 0.2 µM, with: duplex DNA competitor 10 µM).
`CN1CCCNC(=O)c2cccc(c2)C(=O)NCCCN(C)CCCNc2cccc3c2C(=O)c2cccc(c2C3=O)NCCC1` — result for “log2 fold change”: -1.49 (SAS; RNA-Seq, refers to: ATF2 mRNA; 1 µM, 6 h; baseline: untreated cells).
With `CN1CCC[C@]1(C)/C=C/S(=O)(=O)NC(=O)Nc1c2c(cc3c1CCC3)CCC2` the IL-1β inhibition was 99.3% (human, whole blood ex vivo; 100 mg single dose, 12 h, single ascending dose, with: LPS and ATP).
Under “log2 fold change”, `Cc1ncsc1-c1ccc(C(C)NC(=O)C2CC(O)CN2C(=O)C(NC(=O)CCCCCCCCCCN2CCCC(Nc3ncc(Cl)c(Nc4ccccc4S(=O)(=O)C(C)C)n3)C2)C(C)(C)C)cc1` (stereo not shown) is recorded as -1.12 (22Rv1; RNA-seq, refers to: NME6 mRNA; concentration not given; baseline: DMSO).
Under “prothrombin time prolongation”, `COC1OC(C)C(OC2OC(C)C(O)C(OC3OC(C)C(O)C(OS(=O)(=O)O)C3OS(=O)(=O)O)C2OS(=O)(=O)O)C(OS(=O)(=O)O)C1OS(=O)(=O)O` (stereo not shown) is recorded as 1.01 fold (human plasma; 128 µg/mL; baseline: control).
`C[n+]1ccc(/C=N/NC(=O)c2cccc(C(=O)N/N=C/c3cc[n+](C)c4ccccc34)c2)c2ccccc21` has a ΔTm of 0.4 ± 0.1 °C (hp2 hairpin duplex DNA; FRET melting; 1 µM, with: ds26 10 µM).
The Emax of `COc1ccc2c(C)nc(Nc3nc(O)cc(-c4ccccc4)n3)nc2c1` is reported as 78% (Mus musculus; gene silencing, high-content imaging; LDR reporter GFP cells; 30 h, retest, mean of two runs).
For `C[n+]1ccc(/C=N/NC(=O)N/N=C/c2cc[n+](C)cc2)cc1`, the ΔTm was 0.3 ± 0.3 °C (hp2 hairpin duplex DNA; FRET melting; 1 µM, with: ds26 10 µM).
For `CC(C)C[C@H](NC(=O)[C@H](CC(=O)O)NC(=O)CNC(=O)[C@@H](N)CCCNC(=N)N)C(=O)N[C@@H](C)C(=O)N[C@H](C(=O)N[C@@H](CC(C)C)C(=O)N[C@@H](CCCNC(=N)N)C(=O)N[C@@H](CCC(N)=O)C(=O)N[C@@H](CC(C)C)C(=O)N[C@@H](C)C(=O)N[C@@H](CCC(N)=O)C(=O)N[C@@H](CCC(=O)O)C(=O)N[C@@H](CC(=O)O)C(=O)NCC(=O)N[C@H](C(=O)N[C@H](C(=O)NCC(=O)N[C@H](C(=O)N[C@@H](CCCNC(=N)N)C(=O)NCCOCCOCCOCCOCCOCCOCCOCCOCCOCCOCCOCCOCCC(=O)N[C@@H](CS)C(N)=O)C(C)C)C(C)C)C(C)C)[C@@H](C)O`, “fluorescence signal ratio” read 7.6 and 45 (ex vivo NIR imaging; NOD/SCID mice, xenograft, H2009 xenograft; intravenous, 30 µg, 24 h; baseline: lung).
The ΔTm of `C[n+]1ccc(/C=N/NC(=O)c2ccc3ccc4ccc(C(=O)N/N=C/c5cc[n+](C)c6ccccc56)nc4c3n2)c2ccccc21` is reported as 13 ± 0.5 °C (MYC parallel G4 DNA; FRET melting; 1 µM, DNA 0.2 µM).
`CCCC(=O)N1CCN(c2ccc(NC(=O)c3ccc([N+](=O)[O-])o3)cc2Cl)CC1` has an Emax of 22% (Mus musculus; gene silencing, high-content imaging; LDR reporter GFP cells; 30 h, confirmation, mean of two runs).
With `O=C(N/N=C/c1cc[n+](CC2CC2)c2ccccc12)c1cncc(C(=O)N/N=C/c2cc[n+](CC3CC3)c3ccccc23)n1` the ΔTm was 1.5 °C (hp2 hairpin duplex DNA; FRET melting; 1 µM).
For `CCC(=O)N1CCN(c2ccc(NC(=O)c3ccc([N+](=O)[O-])o3)cc2Cl)CC1`, the Emax was 38% (Mus musculus; gene silencing, high-content imaging; LDR reporter GFP cells; 30 h, confirmation, mean of two runs).
Under “prothrombin time prolongation”, `COC1OC(C)C(OS(=O)(=O)O)C(OC2OC(C)C(OS(=O)(=O)O)C(OC3OC(C)C(OS(=O)(=O)O)C(OS(=O)(=O)O)C3O)C2O)C1O` (stereo not shown) is recorded as 0.95 fold (human plasma; 128 µg/mL; baseline: control).
`C=CC(=O)Nc1cccc(Cn2ncc3cnc(Nc4cnn(CCOC)c4)nc32)c1` — result for “percent of control”: 100% (RAF1 human; binding, KINOMEscan; 100 nM; lower = stronger binding).
For `CC(C)(C)c1cc(-c2ccc3cccnc3n2)nc(-c2ccc3cccnc3n2)c1.COc1ccncc1.[Cl-].[Cl-].[Ru+2].c1ccc2cc3nc4c5cccnc5c5ncccc5c4nc3cc2c1`, the phototherapeutic index was 75 (A-375; visible light 100 J/cm2; baseline: dark EC50 over light EC50).
For `C=C(NC(=O)c1csc(-c2nc3c(cc2O)-c2nc(cs2)C(=O)NC(C(C)O)C(=O)NC(=C(C)OC)c2nc(cs2)C(=O)NC2c4nc(cs4)C(=O)NC(COC(=O)c4c5c6c(cccc6n4O)COC(=O)C(OC4CC(C)(O)C(N(C)C)C(C)O4)C2OC5)c2nc-3cs2)n1)C(N)=O` (stereo not shown), “lung bacterial load” read 6.61 log CFU/g (Streptococcus pneumoniae; -25, immunocompromised mice, lung infection; 4 mg/kg/day, twice daily, 24 h post-dose).
`Oc1c(/N=N/c2ccccn2)ccc2ccccc12` has an Emax of 14% (Mus musculus; gene silencing, high-content imaging; LDR reporter GFP cells; 30 h, retest run 1).
For `CNS(=O)(=O)Nc1nccc(Cc2c(C)c3ccc(Oc4ncccc4F)cc3oc2=O)c1F`, the IC50 was 0.0517 µM (JMSU-1; cell viability; 7 days).
With `C[n+]1ccc(/C=N/NC(=O)c2ccc3ccc(C(=O)N/N=C/c4cc[n+](C)cc4)nc3n2)cc1` the ΔTm was 4.4 ± 0.2 °C (MYC parallel G4 DNA; FRET melting; 1 µM, DNA 0.2 µM, with: duplex DNA competitor 10 µM).
`CCc1nnc(NC(=O)c2cccc(C(=O)Nc3nnc(CC)s3)n2)s1` gave an EC50 of 7.94 µM (Mus musculus; gene silencing, high-content imaging; LDR reporter GFP cells; confirmation, mean of two runs).
`C=CC(=O)N1[C@@H](c2ccc3c(c2)OCO3)c2[nH]c3ccccc3c2C[C@H]1C(=O)N1CCN(C)CC1` has a relative co-enrichment of 92% (human cyclin E1 N112C-3xFLAG:CDK2; co-IP with TMT proteomics, refers to: TK1; concentration not given, P04183; baseline: wild type DMSO).

A few entries again:
The ΔTm of `O=C(N/N=C/c1cc[n+](CC2CC2)c2ccccc12)c1cccc(C(=O)N/N=C/c2cc[n+](CC3CC3)c3ccccc23)c1` is reported as 0.7 °C (hp2 hairpin duplex DNA; FRET melting; 1 µM).
The remaining binding of `Nc1ncc(-c2cc(-c3cnn(CC(F)(F)F)c3)ncc2F)nc1C(=O)NC1CNCC(F)C1` (stereo not shown) is reported as 82% (PLK2; KINOMEscan; 1 µM; baseline: DMSO control).
`O=C(NN1C(=O)c2ccccc2NC1c1ccc([N+](=O)[O-])o1)c1ccc([N+](=O)[O-])cc1` (stereo not shown) gave an Emax of 119% (Mus musculus; gene silencing, high-content imaging; LDR reporter GFP cells; 30 h, retest, mean of two runs).
Under “log2 fold change”, `COC1CN([C@H]2CC[C@H]([C@@]3(C)Oc4c(Cl)cc(C(=O)NCc5c(SC)cc(C)[nH]c5=O)c(C)c4O3)CC2)C1` is recorded as 0.562 (RNA-seq, refers to: SLC18A2 mouse homolog; mouse, HT-1376 xenograft, whole blood; dose not given; baseline: vehicle).
